Assay results from different studies.
“And” joins repeats or separate records; there may be more than shown. Numbers after ± are the reported error.
cyp121: Mycocyclosin synthase (cyp121, Mycobacterium tuberculosis, UniProt P9WPP7)

Protein sequences, listed by entry. Tags and fused reporters are not part of them.
UniProt P9WPP7, whole entry: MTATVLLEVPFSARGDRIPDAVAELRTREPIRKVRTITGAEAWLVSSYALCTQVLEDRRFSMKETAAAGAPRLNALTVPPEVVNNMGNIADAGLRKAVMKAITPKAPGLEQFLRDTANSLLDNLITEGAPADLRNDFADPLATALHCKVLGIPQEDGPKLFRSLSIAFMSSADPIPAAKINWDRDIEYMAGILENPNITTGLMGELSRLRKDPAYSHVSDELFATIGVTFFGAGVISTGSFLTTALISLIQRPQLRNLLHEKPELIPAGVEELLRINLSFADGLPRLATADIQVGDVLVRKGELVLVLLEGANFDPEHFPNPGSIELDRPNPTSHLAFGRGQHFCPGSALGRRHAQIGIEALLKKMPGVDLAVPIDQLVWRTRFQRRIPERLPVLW

| SMILES | tested on | test | system | conditions | scale | measurement | value |
| --- | --- | --- | --- | --- | --- | --- | --- |
| NC[C@@H](NC[C@@H]1CCCN1C[C@@H](CO)NC[C@@H](NCCc1ccc(Cl)c(Cl)c1)c1ccccc1)c1ccccc1 | Escherichia coli | bacterial growth |  | compound alone |  | IC90 | 15.2 µM |
| CCCN(CCN1CCN(c2nccc3ccccc23)CC1)[C@H]1CCc2nc(N)sc2C1 | dopamine D3 receptor, mouse | agonist | D2 receptor knockout mouse, nucleus accumbens membranes |  | baseline: basal | Emax | 11.5 ± 2.8% |
| OCCC(c1ccc(-c2ccc(F)cc2)cc1)n1ccnc1 (centres unmarked) | cyp121 | binding |  |  |  | Kd | 14 ± 2 µM |
| CC[C@H](C)[C@H](NC(=O)[C@H](C)NC(=O)[C@H](CCC(=O)O)NC(=O)[C@H](CCC(=O)O)NC(=O)[C@H](CC(C)C)NC(=O)[C@H](CCCCN)NC(=O)[C@H](CCCCN)NC(=O)[C@H](CCSC)NC(=O)[C@H](CCC(=O)O)NC(=O)[C@H](Cc1ccc(O)cc1)NC(=O)[C@H](CCC(=O)O)NC(=O)[C@H](CC(C)C)NC(=O)[C@H](CC(=O)O)NC(=O)[C@H](CC(C)C)NC(=O)[C@H](Cc1ccccc1)NC(=O)[C@@H](NC(=O)[C@@H](NC(=O)[C@H](CC(N)=O)NC(=O)[C@@H](NC(=O)[C@H](CCC(N)=O)NC(=O)[C@H](CC(=O)O)NC(=O)[C@H](CC(C)C)NC(=O)[C@H](CO)NC(=O)[C@H](CC(C)C)NC(=O)[C@H](CC(=O)O)NC(=O)[C@@H]1CCCN1C(=O)[C@H](C)N)[C@@H](C)CC)C(C)C)[C@@H](C)O)C(=O)N[C@@H](CCCCN)C(=O)N[C@@H](CCCCN)C(=O)N[C@@H](CC(C)C)C(=O)N[C@@H](CCC(=O)O)C(=O)N[C@@H](CCC(=O)O)C(=O)N[C@@H](CO)C(=O)N[C@@H](Cc1ccc(O)cc1)C(=O)N[C@H](C(=O)N[C@@H](CC(=O)O)C(=O)N[C@@H](CC(C)C)C(=O)N[C@@H](CCCCN)C(=O)N[C@@H](CCC(=O)O)C(=O)N[C@@H](CC(C)C)C(=O)O)[C@@H](C)CC | HCoV-OC43 | viral infection, inhibitor, immunostaining | HCT-8 | 2 days |  | IC50 | 0.161 µM |
| CC(C)C(C(=O)N(Cc1ccc(C2CCCCC2)cc1)c1ccc(C(=O)O)cc1)N(C)S(=O)(=O)c1c(F)c(F)c(F)c(F)c1F (centres unmarked) |  | immunohistochemistry | NSG mice, Pa03C xenograft, tumour | ip, 10 mg/kg, 15 days |  | phospho-histone H3 level | decreased |
| NC[C@@H](NC[C@@H]1CCCN1C[C@@H](CO)NC[C@@H](NCCc1ccc(-c2ccccc2)cc1)c1ccccc1)c1ccccc1 | Escherichia coli | bacterial growth |  | 16 µM, fold shift of IC90, together with: amikacin |  | potentiation of amikacin | 1 fold |
| CC1CCCCCCCCCCCCC(=O)C1 (centres unmarked) | Manis javanica OBP3 Y87A |  |  | concentration not given | baseline: wild type | binding affinity | decreased |
| CCC(c1cc(-c2ccc(F)c(F)c2)cs1)n1ccnc1 (centres unmarked) | cyp121 | binding |  |  |  | Kd | 6.3 ± 1.1 µM |
| CC(CCN[C@H](CN[C@H](CO)CN1CCC[C@H]1CN[C@H](CN)c1ccccc1)c1ccccc1)c1ccccc1 (some centres unmarked) | Klebsiella pneumoniae | bacterial growth |  | 8 µM, fold shift of IC50, together with: amikacin |  | potentiation of amikacin | 1.5 fold |
| CCCCCCCCCCCCNC(=O)N[C@H](C(=O)N[C@H]1/C=C/CCNC(=O)/C=C/[C@H](C)NC1=O)C(C)C | U-266 bortezomib-resistant | cell viability |  |  | baseline: EC50 resistant over parental U-266 | resistance index | 2.2 ± 0.4 |
| NC(=O)CC[C@H](NC(=O)[C@H](CCC(N)=O)NC(=O)[C@H](CC(N)=O)NC(=O)[C@H](CC(N)=O)NC(=O)CNC(=O)[C@H](Cc1ccccc1)NC(=O)Cc1ccc2ccccc2c1)C(=O)N[C@@H](CC(N)=O)C(=O)N[C@@H](Cc1ccc(OP(=O)(O)O)cc1)C(=O)O | HeLa | cell viability, MTT |  | 48 h |  | IC50 | > 500 µM |
| CC(C)C[C@H](NC(=O)[C@H](Cc1ccccc1)C[C@@H](O)[C@H](Cc1ccccc1)NC(=O)OC(C)(C)C)C(=O)N[C@@H](Cc1ccc(C(=O)c2ccccc2)cc1)C(=O)NCCCCCNC(=O)CCCC[C@@H]1SC[C@@H]2NC(=O)N[C@@H]21 | γ-secretase | Aβ42 production | CHO expressing APP |  |  | IC50 | 0.03 µM |
| NC[C@@H](NC[C@@H]1CCCN1C[C@@H](CO)NC[C@@H](NCCC1CC2CCC1C2)c1ccccc1)c1ccccc1 (some centres unmarked) | Escherichia coli | bacterial growth |  | 24 µM, fold shift of IC50, together with: amikacin |  | potentiation of amikacin | 6.5 fold |
| CN1CC[C@]23c4c5ccc(O)c4O[C@H]2c2ncc(-c4ccc(Cl)cc4)cc2C[C@@]3(OCCCc2ccccc2)[C@H]1C5 |  | tail flick | CD-1 mouse | sc |  | A50 | 0.95 mg/kg |
| CO[C@H]1[C@H](O[C@H]([C@H]2O[C@@H](n3ccc(=O)[nH]c3=O)[C@H](O)[C@@H]2O)[C@H](NCCCNC(=O)[C@@H](NC(=O)[C@@H](NC(=O)N[C@H](C(=O)O)C(C)C)[C@@H]2CCNC(=N)N2)[C@@H](OC(=O)CCCCCCCCCCCCN(O)C(=N)N)C(C)C)C(N)=O)O[C@H](CN)[C@H]1O | Cryptococcus gattii | alamar blue | C17 |  |  | MIC50 | > 35 µg/mL |
| O=S(=O)(O)c1ccc2cc(S(=O)(=O)O)ccc2c1 | Escherichia coli | bacterial growth, broth microdilution | expressing OXA-48 | 64 µg/mL, together with: ampicillin | MIC of ampicillin | MIC of ampicillin | 128 µg/mL |
| C[C@H](CS)C(=O)N[C@H](Cc1c[nH]c2ccccc12)C(=O)O | Escherichia coli |  | IMP-1 producing | 50 µM, together with: meropenem |  | MIC of meropenem | 0.5 µg/mL |
| Cc1ccc(-c2csc(NP(=O)(O)OCC3OC(n4cnc5c(=O)[nH]c(NC(=O)c6ccccc6)nc54)C4OC(C)(C)OC34)n2)cc1 (centres unmarked) | MCF7 | cell growth, SRB |  |  |  | IC50 | 32.2 ± 2.02 µM |
| CO[C@H]1[C@H](O[C@H]([C@H]2O[C@@H](n3ccc(=O)[nH]c3=O)[C@H](O)[C@@H]2O)[C@H](NCCCNC(=O)[C@@H](NC(=O)[C@@H](NC(=O)N[C@H](C(=O)O)C(C)C)[C@@H]2CCNC(=N)N2)[C@@H](OC(=O)CCCCCCCCCCCCNC(=N)N)C(C)C)C(N)=O)O[C@H](CN)[C@H]1O | Saccharomyces cerevisiae | alamar blue | BY4742 |  |  | MIC50 | > 35 µg/mL |
| Cc1ccc(-c2csc(NP(=O)(O)OCC3OC(n4c[n+](Cc5ccccc5)c5c(=O)[nH]c(NC(=O)c6ccccc6)nc54)C4OC(C)(C)OC34)n2)cc1 (centres unmarked) | MCF7 | measured: β-actin |  |  |  | protein level | 5.17 ng/mL |
| O=S(=O)(O)c1ccc(-c2ccc(S(=O)(=O)O)cc2)cc1 | Escherichia coli | bacterial growth, inhibitor, broth microdilution | expressing OXA-48 | 256 µg/mL, together with: ampicillin | baseline: ampicillin alone | MIC fold reduction | 16 fold |
| Cc1c(C(=O)NN2CCCCC2)nn(-c2ccc(Cl)cc2Cl)c1-c1ccc(CCCCCBr)cc1 |  |  | mice, food-deprived | i.p., 30 mg/kg, 1 h intake, dosed 60 min before | baseline: vehicle, higher = less food | food intake decrease | 39% |
| C=CC(=O)Nc1cc(-n2c(=O)ccc3cnc4ccc(-c5cn[nH]c5)cc4c32)ccc1C | Ramos | western blot, measured: PARP and caspase-3 cleavage |  | 8 h |  | concentration inducing apoptosis | 1 µM |
| COC(=O)[C@@H]1C=C(OC(=O)c2ccc(CO)cc2)C(=O)[C@H]2[C@@]1(C)CC[C@H]1C(=O)O[C@H](c3ccoc3)C[C@]21C |  | antinociception | C57BL/6 mice male | day 1, cumulative dosing |  | ED50 | 2.35 ± 0.25 mg/kg |
| NC[C@@H](NC[C@@H]1CCCN1C[C@@H](CO)NC[C@@H](NCCC12CC3CC(CC(C3)C1)C2)c1ccccc1)c1ccccc1 | Acinetobacter baumannii | bacterial growth |  | compound alone |  | IC50 | 20 µM and 19.7 µM |
| O=C(O)c1ccc(-c2cccc(C(=O)O)c2)cc1 | Escherichia coli | bacterial growth, inhibitor, broth microdilution | expressing OXA-48 | 256 µg/mL, together with: ampicillin | baseline: ampicillin alone | MIC fold reduction | 16 fold |

Excerpt of the above:
| SMILES | tested on | test | system | conditions | scale | measurement | value |
| --- | --- | --- | --- | --- | --- | --- | --- |
| NC[C@@H](NC[C@@H]1CCCN1C[C@@H](CO)NC[C@@H](NCCc1ccc(Cl)c(Cl)c1)c1ccccc1)c1ccccc1 | Escherichia coli | bacterial growth |  | compound alone |  | IC90 | 15.2 µM |
| Cc1c(C(=O)NN2CCCCC2)nn(-c2ccc(Cl)cc2Cl)c1-c1ccc(CCCCCBr)cc1 |  |  | mice, food-deprived | i.p., 30 mg/kg, 1 h intake, dosed 60 min before | baseline: vehicle, higher = less food | food intake decrease | 39% |
| NC[C@@H](NC[C@@H]1CCCN1C[C@@H](CO)NC[C@@H](NCCc1ccc(-c2ccccc2)cc1)c1ccccc1)c1ccccc1 | Escherichia coli | bacterial growth |  | 16 µM, fold shift of IC90, together with: amikacin |  | potentiation of amikacin | 1 fold |
